# Measured values collected from several papers.
# Each line is one published result; not all experiments were run side by side. “And” joins repeats or separate records; there may be more than shown. ± gives the spread as reported.
Substance,target or system,assay,system,conditions,scale,endpoint,value
heparin sodium,,,"healthy Chinese adult volunteers, plasma","continuous intravenous infusion, 8 IU/kg/h, day 1 to 6 of 5-day infusion, median with range",relative to: baseline,time to maximum prothrombin time ratio,1.99 h
thimet oligopeptidase,,co-immunoprecipitation,human RBC cytosol,"DMTMM crosslinker, unit not given, together with: Band 3 peptide 1-56 bait",relative to: negative control,co-IP enrichment,448000
VGSMGALVF,,CD8 T cell response,"peptide, naive splenocytes as APCs, mouse","2 µg/mL, 48 h",,IFN-γ ELISpot response,negative
somatropin,,,"children with severe GH deficiency, short stature","dose not given, mutation-negative cases, mean",,height gain in first year of therapy,10 cm
maraviroc,,ELISA,"HIV-infected mice, plasma","i.p., 120 mg/kg twice daily, 3 weeks post infection","relative to: HIV-infected untreated mice, increase",Aβ40 level,1.67 fold
liraglutide,,,"Wistar rat, female, diet-induced obese, blood, fasted","subcutaneous, dose not given, after 4 weeks treatment",,blood glucose,104 ± 2.4 mg/dL
KCNTATCATQRLANFLVHSSNNFGPILPPTNVGSNTY (Pramlintide; sequence looked up),,ELISA,"peptide, Tg2576 mouse, brain extract","intraperitoneal, dose not given, 10 weeks daily",,Aβ1-40 level,905 ± 132 pg/10 µg protein
CpG-ODN 1826,,,"mouse B16-F10 tumour, tumour","dose not given, day 8",relative to: control,LAG-3+ CD4 T cells,no effect
semaglutide,,,"Wistar rat, male, diet-induced obese","subcutaneous, dose not given",,cumulative caloric intake,3210 ± 98 kcal
lysophosphatidic acid,,,mouse small intestinal enteroids,"concentration not given, applied post-irradiation",,enteroid survival,no effect
adenosylhomocysteinase,,co-immunoprecipitation,human RBC cytosol,"DMTMM crosslinker, unit not given, together with: Band 3 peptide 1-56 bait",relative to: negative control,co-IP enrichment,3950
SSPGMSQEV,,CD8 T cell response,"peptide, naive splenocytes as APCs, mouse","2 µg/mL, 48 h",,IFN-γ ELISpot response,negative
calcium,,"ion current, two-electrode voltage clamp",Xenopus oocytes,"10 mM, 80 mV, together with: niflumic acid present",,desensitization time constant,12.8 s and 7.59 s and 8.47 s and 7.82 s and 7.3 s
human complement C3,,co-immunoprecipitation,human RBC cytosol,"no crosslinker, unit not given, together with: Band 3 peptide 1-56 bait",relative to: negative control,co-IP enrichment,0
difelikefalin,,,Japanese haemodialysis patients with pruritus,"intravenous, 0.5 µg/kg, 8 weeks",,PGIC minimally worse,1.7%
QYFARMCSV,,CD8 T cell response,"peptide, naive splenocytes as APCs, mouse","2 µg/mL, 48 h",,IFN-γ ELISpot response,negative
MTVCNASQRQAHAQATAVSL,,phage binding,"peptide, panel of 11 cancer lines",selectivity at least 20,,number of cell lines,2
Pam2CSK4,,,"APP/PS1 mouse, cortex","local injection, dose not given, unit not given",relative to: injected over adjacent side,Thioflavin S plaque level,0.753 and 0.883 and 1.04
SGTHFSLFL,,CD8 T cell response,"peptide, naive splenocytes as APCs, mouse","2 µg/mL, 48 h",,IFN-γ ELISpot response,negative
YEQDPWGVKWWY,,,"peptide, mouse, CP model, serum","0.154 µmol/kg, 4 weeks",relative to: untreated CP mice,serum IL-2,inhibited
GGWVEKETYY,human SCRIB PDZ3-4 tandem (MBP fusion),automated holdup,"peptide, purified PDZ protein","concentration not given, unit not given","relative to: biotin control resin, higher = stronger binding",binding intensity,-0.00221
human desmoplakin,,co-immunoprecipitation,human RBC membrane,"no crosslinker, unit not given, together with: Band 3 peptide 1-56 bait",relative to: negative control,co-IP enrichment,0
insulin aspart,,euglycaemic glucose clamp,"human, adults with type 1 diabetes, up to 35 years","subcutaneous, 0.2 U/kg",,time to GIRmax,125 min
human HSC70,,co-immunoprecipitation,human RBC cytosol,"unit not given, together with: Band 3 peptide 1-56 bait",relative to: negative control,co-IP enrichment,0
VPAFIFGQL,,CD8 T cell response,"peptide, naive splenocytes as APCs, mouse","2 µg/mL, 48 h",,IFN-γ ELISpot response,negative
SVWLRKETRV,human MAGI1-2/6 PDZ construct (MBP fusion),surface plasmon resonance,peptide,concentration not given,higher = stronger binding,normalised SPR binding response,229 normalised RU
tripeptidyl peptidase 2,,co-immunoprecipitation,human RBC cytosol,"DMTMM crosslinker, unit not given, together with: Band 3 peptide 1-56 bait",relative to: negative control,co-IP enrichment,1900
QYIKLYPVL,,CD8 T cell response,"peptide, naive splenocytes as APCs, mouse","2 µg/mL, 48 h",,IFN-γ ELISpot response,negative
insulin degludec,,euglycaemic hyperinsulinaemic clamp,healthy Chinese male humans,"subcutaneous, 0.4 IU/kg, 24 h, 2 FC level, single dose, reference formulation",,maximum glucose infusion rate,2.49 ± 0.71 mg/kg/min
FPMISKLRY,,CD8 T cell response,"peptide, naive splenocytes as APCs, mouse","2 µg/mL, 48 h",,IFN-γ ELISpot response,negative
colistin,Enterobacter cloacae,broth microdilution,clinical isolate RKI-No_141/15,,,MIC,4 µg/mL
cotadutide,,,"C57BL/6J mouse, AMLN diet NASH model","dose not given, terminal",,plasma insulin,0.6 ± 0.1 ng/mL
CCT4,,co-immunoprecipitation,human RBC cytosol,"unit not given, together with: Band 3 peptide 1-56 bait",relative to: negative control,co-IP enrichment,0
glucagon,,,mouse,"dose not given, 6 h",,plasma free fatty acids,1.07 mmol/L and 1.26 mmol/L and 1.11 mmol/L and 0.995 mmol/L and 0.911 mmol/L
hemoglobin beta,,co-immunoprecipitation,human RBC cytosol,"DSSO crosslinker, unit not given, together with: Band 3 peptide 1-56 bait",relative to: negative control,co-IP enrichment,165000
QYGAVPGSV,,CD8 T cell response,"peptide, naive splenocytes as APCs, mouse","2 µg/mL, 48 h",,IFN-γ ELISpot response,negative
insulin,,,gestational diabetes women,"dose not given, treated arm",,caesarean birth incidence,24%

# Excerpt of the above:
Substance,target or system,assay,system,conditions,scale,endpoint,value
SSPGMSQEV,,CD8 T cell response,"peptide, naive splenocytes as APCs, mouse","2 µg/mL, 48 h",,IFN-γ ELISpot response,negative
calcium,,"ion current, two-electrode voltage clamp",Xenopus oocytes,"10 mM, 80 mV, together with: niflumic acid present",,desensitization time constant,12.8 s and 7.59 s and 8.47 s and 7.82 s and 7.3 s
human complement C3,,co-immunoprecipitation,human RBC cytosol,"no crosslinker, unit not given, together with: Band 3 peptide 1-56 bait",relative to: negative control,co-IP enrichment,0
